Published values gathered from unrelated publications.
A part holds a random share of what one study measured.
Sequence of UniProt Q6PHR2 (whole entry, looked up): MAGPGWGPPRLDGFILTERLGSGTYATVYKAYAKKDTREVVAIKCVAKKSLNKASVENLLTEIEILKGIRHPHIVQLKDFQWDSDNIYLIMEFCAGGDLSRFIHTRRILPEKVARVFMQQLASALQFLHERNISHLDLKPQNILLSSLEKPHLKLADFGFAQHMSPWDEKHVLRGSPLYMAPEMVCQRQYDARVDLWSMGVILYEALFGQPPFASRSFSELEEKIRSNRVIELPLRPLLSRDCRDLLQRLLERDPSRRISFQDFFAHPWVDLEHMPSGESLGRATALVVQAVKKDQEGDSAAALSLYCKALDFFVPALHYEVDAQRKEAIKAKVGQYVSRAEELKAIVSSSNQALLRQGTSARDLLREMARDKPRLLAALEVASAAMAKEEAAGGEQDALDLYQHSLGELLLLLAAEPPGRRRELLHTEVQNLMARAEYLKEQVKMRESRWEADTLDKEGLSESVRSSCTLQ
Sequence of UniProt P10721 (whole entry, unmodified, looked up): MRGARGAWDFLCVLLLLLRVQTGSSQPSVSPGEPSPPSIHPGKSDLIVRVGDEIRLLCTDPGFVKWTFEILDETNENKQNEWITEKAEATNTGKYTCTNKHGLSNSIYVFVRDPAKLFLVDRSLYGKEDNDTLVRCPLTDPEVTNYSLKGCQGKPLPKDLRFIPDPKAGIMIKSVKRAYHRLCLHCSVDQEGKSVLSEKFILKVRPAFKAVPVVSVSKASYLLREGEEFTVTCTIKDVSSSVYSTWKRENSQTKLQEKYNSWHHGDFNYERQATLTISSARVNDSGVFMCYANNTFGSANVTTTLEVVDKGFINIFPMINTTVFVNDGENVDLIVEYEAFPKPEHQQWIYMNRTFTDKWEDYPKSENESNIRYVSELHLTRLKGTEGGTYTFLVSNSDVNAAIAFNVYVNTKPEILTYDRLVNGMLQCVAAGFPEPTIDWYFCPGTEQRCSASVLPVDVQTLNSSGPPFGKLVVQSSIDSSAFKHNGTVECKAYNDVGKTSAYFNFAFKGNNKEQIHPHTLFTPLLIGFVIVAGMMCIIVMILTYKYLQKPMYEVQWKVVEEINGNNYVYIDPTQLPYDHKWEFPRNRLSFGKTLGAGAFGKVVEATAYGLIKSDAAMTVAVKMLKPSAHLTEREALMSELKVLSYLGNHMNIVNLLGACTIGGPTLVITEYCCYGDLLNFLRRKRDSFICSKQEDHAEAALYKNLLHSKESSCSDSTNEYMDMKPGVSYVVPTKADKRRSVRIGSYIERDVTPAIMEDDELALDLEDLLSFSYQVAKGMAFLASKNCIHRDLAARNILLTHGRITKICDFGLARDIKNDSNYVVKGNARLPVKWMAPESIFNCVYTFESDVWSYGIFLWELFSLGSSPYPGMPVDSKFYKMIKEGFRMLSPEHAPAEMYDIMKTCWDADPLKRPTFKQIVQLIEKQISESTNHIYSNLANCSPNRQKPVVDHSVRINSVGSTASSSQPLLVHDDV
Sequence of UniProt P48730 (whole entry, looked up): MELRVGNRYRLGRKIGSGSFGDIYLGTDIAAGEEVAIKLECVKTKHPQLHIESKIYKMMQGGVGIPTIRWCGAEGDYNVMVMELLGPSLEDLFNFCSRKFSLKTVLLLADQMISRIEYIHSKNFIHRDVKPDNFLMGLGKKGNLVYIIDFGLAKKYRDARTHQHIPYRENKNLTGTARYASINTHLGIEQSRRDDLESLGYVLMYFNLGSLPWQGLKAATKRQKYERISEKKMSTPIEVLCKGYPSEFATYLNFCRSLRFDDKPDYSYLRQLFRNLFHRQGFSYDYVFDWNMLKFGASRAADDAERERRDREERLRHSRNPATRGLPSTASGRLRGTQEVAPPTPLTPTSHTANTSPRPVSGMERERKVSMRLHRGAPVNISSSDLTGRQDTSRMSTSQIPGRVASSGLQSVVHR

Block 1
Target: ALK tyrosine kinase receptor (ALK, Homo sapiens, UniProt Q9UM73)
Sequence of UniProt Q9UM73 (whole entry, looked up): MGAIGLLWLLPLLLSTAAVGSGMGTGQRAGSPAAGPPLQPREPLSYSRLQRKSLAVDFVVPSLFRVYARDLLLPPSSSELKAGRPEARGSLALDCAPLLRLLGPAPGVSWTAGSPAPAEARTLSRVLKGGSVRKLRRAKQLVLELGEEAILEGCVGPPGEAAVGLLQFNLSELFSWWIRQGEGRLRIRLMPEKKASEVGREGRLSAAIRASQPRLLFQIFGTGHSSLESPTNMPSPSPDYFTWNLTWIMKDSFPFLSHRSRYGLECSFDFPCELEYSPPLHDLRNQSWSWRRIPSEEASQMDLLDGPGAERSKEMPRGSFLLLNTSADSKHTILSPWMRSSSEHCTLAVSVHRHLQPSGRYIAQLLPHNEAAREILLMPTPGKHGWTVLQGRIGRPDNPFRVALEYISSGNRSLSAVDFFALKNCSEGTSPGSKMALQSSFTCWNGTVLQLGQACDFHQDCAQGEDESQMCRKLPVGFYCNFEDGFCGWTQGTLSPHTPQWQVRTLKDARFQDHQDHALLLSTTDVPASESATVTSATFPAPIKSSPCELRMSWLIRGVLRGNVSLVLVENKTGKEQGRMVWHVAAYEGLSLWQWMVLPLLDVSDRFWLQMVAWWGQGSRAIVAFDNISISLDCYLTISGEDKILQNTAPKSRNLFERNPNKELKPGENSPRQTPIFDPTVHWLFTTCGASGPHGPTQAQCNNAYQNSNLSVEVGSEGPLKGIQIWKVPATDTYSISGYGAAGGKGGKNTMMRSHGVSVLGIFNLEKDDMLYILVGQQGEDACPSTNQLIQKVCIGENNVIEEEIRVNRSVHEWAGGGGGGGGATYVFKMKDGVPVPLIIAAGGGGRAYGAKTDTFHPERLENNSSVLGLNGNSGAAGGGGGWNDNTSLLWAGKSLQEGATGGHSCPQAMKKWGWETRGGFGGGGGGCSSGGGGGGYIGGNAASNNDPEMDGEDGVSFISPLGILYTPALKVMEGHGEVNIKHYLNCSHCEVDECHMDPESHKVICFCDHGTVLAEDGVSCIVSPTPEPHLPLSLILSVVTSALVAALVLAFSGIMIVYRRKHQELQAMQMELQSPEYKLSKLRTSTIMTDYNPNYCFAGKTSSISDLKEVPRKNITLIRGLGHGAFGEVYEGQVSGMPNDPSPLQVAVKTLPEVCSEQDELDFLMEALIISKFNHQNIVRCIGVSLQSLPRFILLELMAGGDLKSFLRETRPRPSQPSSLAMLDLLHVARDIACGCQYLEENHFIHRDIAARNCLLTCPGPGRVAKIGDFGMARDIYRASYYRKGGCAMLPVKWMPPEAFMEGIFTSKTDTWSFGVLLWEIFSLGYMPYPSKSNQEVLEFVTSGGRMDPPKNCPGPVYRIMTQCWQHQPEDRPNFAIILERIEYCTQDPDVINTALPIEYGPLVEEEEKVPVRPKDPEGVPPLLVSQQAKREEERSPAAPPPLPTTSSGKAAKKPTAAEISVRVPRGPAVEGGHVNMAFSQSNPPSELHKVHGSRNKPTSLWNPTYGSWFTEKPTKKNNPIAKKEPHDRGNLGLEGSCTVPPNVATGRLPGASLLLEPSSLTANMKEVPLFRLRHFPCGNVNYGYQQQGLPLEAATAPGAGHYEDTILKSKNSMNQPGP
Observed: enzyme activity
Action: inhibitor
Concentration: 0.5 µM
Relative to: control
`O=c1c(-c2ccc(F)cc2)c(-c2ccncc2)[nH]n1-c1ccc(Cl)cc1` gave a remaining activity of 83.8%.
`CC(C)n1cnc2c(Nc3cccc(Cl)c3)nc(NCCO)nc21` gave a remaining activity of 91.8%.
`CC(C)N(CCC(=O)c1ccc2ccccc2c1)Cc1ccccc1` has a remaining activity of 88.9%.
`FC(F)(F)c1ccc(/C=C/c2nc(COc3ccc(CCCCn4ccnn4)cc3)co2)cc1` has a remaining activity of 108%.
`Clc1ccc(Nc2nnc(Cc3ccncc3)c3ccccc23)cc1` has a remaining activity of 102%.
`CCCCc1c(-c2ccc(O)cc2)[nH]c2nccnc12` has a remaining activity of 85%.
For `c1cc(-c2cnn3cc(-c4ccc(OCCN5CCCCC5)cc4)cnc23)ccn1`, the remaining activity was 84.5%.
`CCN(CC)CCCCN1c2ccccc2Oc2ccc(Cl)cc21` gave a remaining activity of 106%.
`N#CC(c1ccnc(NCCc2cccnc2)n1)c1nc2ccccc2s1` (stereo not drawn) has a remaining activity of 85.2%.
`C[C@@H](N)[C@H]1CC[C@H](C(=O)Nc2ccncc2)CC1` has a remaining activity of 94.8%.
With `O=C(O)/C=C/c1cc(Br)c(Br)c(Br)c1Br` the remaining activity was 98.6%.
For `O=Nc1c(-c2c(O)[nH]c3ccccc23)[nH]c2ccccc12`, the remaining activity was 76.5%.
For `N#C/C(=C(/N)SC1C=CC=CC1)c1cccc(C(O)c2ccncc2)c1` (stereo not drawn), the remaining activity was 96.3%.
For `NC(=O)c1ccc(-c2nc(-c3ccc4c(c3)OCCO4)c(-c3ccccn3)[nH]2)cc1`, the remaining activity was 100%.
`O=C1c2ccccc2-c2nc3nnnn3nc21` has a remaining activity of 83.5%.
The remaining activity of `O=C1NC(=O)/C(=C/c2ccc3c(c2)OC(F)(F)O3)S1` is reported as 83.4%.
For `NC(=O)c1cccc(-c2cc(Nc3ccc(OC(F)(F)F)cc3)ncn2)c1`, the remaining activity was 103%.
With `O=C(c1ccccc1)c1ccc(N2CCOCC2)cc1O` the remaining activity was 102%.
`Nc1nc(Nc2ccc(S(N)(=O)=O)cc2)nn1C(=S)Nc1c(F)cccc1F` has a remaining activity of 16.7%.
The remaining activity of `CNc1cc2c(Nc3cccc(Br)c3)ncnc2cn1` is reported as 82%.
For `CC(C)(C)c1nc2c3cc[nH]c(=O)c3c3cc(F)ccc3c2[nH]1`, the remaining activity was 20%.

Block 2
Cell line: normal-adjacent organoid sample F
Technique: CellTiter-Glo
Concentration: 1 µM
Setting: replicate mean
Relative to: DMSO
The viability of `O=C(N1CCS(=O)(=O)CC1)N1C[C@H](c2ccc(OC(F)(F)F)cc2)C[C@H](c2nc(C3CC3)no2)C1` is reported as 106%.
`O=C(O)c1cc(-c2ccc(C3CCNCC3)cc2)c2ccc(-c3ccc(C(F)(F)F)cc3)cc2c1` has a viability of 91.8%.
`c1ccc(N2CCN(Cc3nc4ccccc4[nH]3)CC2)nc1` gave a viability of 110%.
With `Cc1cnc(-c2cc(Cl)ccc2F)cc1-n1c(=O)n(CC(N)=O)c2cnccc21` the viability was 152%.
`CN([C@@H]1CCc2c(CC(=O)O)c3ccccc3n2C1)S(=O)(=O)c1ccc(F)cc1` gave a viability of 106%.
For `Cc1ccc2[nH]c(CNCCCc3ccncc3)cc(=O)c2c1`, the viability was 132%.
For `Cn1cc(Cl)c2c(Oc3c(F)cc(Nc4cc(Cl)nc(N)n4)cc3F)ccnc21`, the viability was 110%.
`O=C(NS(=O)(=O)c1ccc(NCC2CCOCC2)c([N+](=O)[O-])c1)c1ccc(N2CCN(Cc3ccc(C(F)(F)F)cc3-c3ccc(Cl)cc3)CC2)cc1Oc1cnc2[nH]ccc2c1` has a viability of 118%.
The viability of `Cc1c(C(=O)O)cc(-c2ccc(C3CCNCC3)cc2)c2ccc(-c3ccc(C(F)(F)F)cc3)cc12` is reported as 115%.
For `CO[C@@H](C)c1c(Nc2ccc([C@@H](N(C)C(=O)C3CCS(=O)(=O)CC3)C(F)(F)F)cc2)cnc2cc(Cl)nn12`, the viability was 147%.
The viability of `O=c1nc(-c2ccccn2)sc2ccccc12` is reported as 99.6%.
The viability of `Cn1nc(C(=O)NCc2ccc(C(=O)O)cc2)cc1-c1ccc2[nH]ccc2c1` is reported as 107%.
`CC(=O)N1CCC(c2ccc(C(=O)NC(=N)N)cc2C(F)(F)F)CC1` gave a viability of 110%.
With `Cc1c(Oc2ccc(F)cc2)c(OC(C)C)nn1-c1ccc(C2CC2)cn1` the viability was 160%.
`CC1=C(C#N)C(c2ccc3[nH]nc(C)c3c2)C(C#N)=C(C)N1` gave a viability of 112%.
The viability of `CNCc1ccccc1-c1csc([C@@H](C)Nc2nc(C)nc3cc(OC)c(OC)cc23)c1` is reported as 89.3%.
`CCCCN(CCCC)C(=O)CN1C[C@@H](c2cc(OC)c3c(c2)OCO3)[C@H](C(=O)O)[C@H]1CC(C)(C)CCC` has a viability of 103%.
For `CN(C)CC#Cc1ccc(OCCCc2sc(N3CCc4cccc(C(=O)Nc5nc6ccccc6s5)c4C3)nc2C(=O)O)c(F)c1`, the viability was 19.6%.
For `c1ccc2oc(-c3csc(C4CCN(Cc5nc6ncccc6[nH]5)CC4)n3)cc2c1`, the viability was 41%.
`CCNC(=O)c1cc2c(N3CCOC[C@@H]3C)ccnc2[nH]1` gave a viability of 110%.
`CC(=O)C1=C(C)N(c2cccc(C(F)(F)F)c2)C(=O)N[C@@H]1c1ccc(C#N)nc1` gave a viability of 112%.
With `O=C(O)[C@@H]1[C@@H](Cn2nnc3ccccc3c2=O)CC[C@H]1C(=O)c1ccc(OCCC2CCOCC2)cc1` the viability was 103%.
The viability of `Cn1c(-c2csc(C3CCN(Cc4nc5ncccc5[nH]4)CC3)n2)nc2ccccc21` is reported as 127%.
For `CN(C)C(=O)Cn1cc(-c2nc(C3(c4ccc(-c5cnc(N)nc5)cc4)CC3)no2)cn1`, the viability was 106%.
`Cc1cc(NC(=O)c2cccc(S(F)(F)(F)(F)F)c2)cc(-n2ccn3nc(-c4cccnc4)cc23)c1` has a viability of 97.3%.

Block 3
Structure (SMILES): Cc1ccc(NC(=O)c2ccnc(C(F)(F)F)c2)cc1-c1cc(OCCO)nc(N2CCOCC2)c1
Concentration: 1 µM
CDK4: Cyclin-dependent kinase 4 (CDK4, Homo sapiens, UniProt P11802)
Sequence of UniProt P11802 (whole entry, looked up): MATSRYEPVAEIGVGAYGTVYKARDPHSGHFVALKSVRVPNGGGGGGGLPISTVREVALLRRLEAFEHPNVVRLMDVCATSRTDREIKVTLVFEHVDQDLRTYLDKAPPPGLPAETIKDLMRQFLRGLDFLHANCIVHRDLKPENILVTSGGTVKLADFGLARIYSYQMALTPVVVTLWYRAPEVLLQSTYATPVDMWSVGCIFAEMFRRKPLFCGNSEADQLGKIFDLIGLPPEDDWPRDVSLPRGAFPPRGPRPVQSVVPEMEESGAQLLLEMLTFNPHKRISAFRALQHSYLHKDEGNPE
Serine/threonine-protein kinase SIK2 (SIK2, Homo sapiens, UniProt Q9H0K1); competitive binding panel; relative to: vehicle — remaining binding: 97%.
It gave 100% for remaining binding (MAP/microtubule affinity-regulating kinase 4 (MARK4, Homo sapiens, UniProt Q96L34); competitive binding panel; relative to: vehicle).
CDK4; competitive binding scan; with: cyclin D1 — remaining binding: 97%.
For Serine/threonine-protein kinase ULK3 (ULK3, Homo sapiens, UniProt Q6PHR2); competitive binding panel; relative to: vehicle: remaining binding read 85%.
Serine/threonine-protein kinase Nek1 (NEK1, Homo sapiens, UniProt Q96PY6); competitive binding panel; relative to: vehicle — remaining binding: 100%.
The remaining binding was 86% (Angiopoietin-1 receptor (TEK, Homo sapiens, UniProt Q02763); competitive binding; TIE2).
For Serine/threonine-protein kinase pim-3 (PIM3, Homo sapiens, UniProt Q86V86); competitive binding panel; relative to: vehicle: remaining binding read 85%.
Tyrosine-protein kinase JAK1 (JAK1, Homo sapiens, UniProt P23458); competitive binding panel; JH1 catalytic domain; relative to: vehicle — remaining binding: 93%.
The remaining binding was 100% (CDK4; competitive binding scan; with: cyclin D3).
It gave 93% for remaining binding (Tyrosine-protein kinase ABL1 (ABL1, Homo sapiens, UniProt P00519, E255K); competitive binding panel; relative to: vehicle).
The remaining binding was 86% (Epidermal growth factor receptor (EGFR, Homo sapiens, UniProt P00533, del746-750); competitive binding panel; relative to: vehicle).
Casein kinase I isoform delta (CSNK1D, Homo sapiens, UniProt P48730); competitive binding panel; relative to: vehicle — remaining binding: 99%.
It gave 97% for remaining binding (Ephrin type-A receptor 3 (EPHA3, Homo sapiens, UniProt P29320); competitive binding panel; relative to: vehicle).
The remaining binding was 75% (Mast/stem cell growth factor receptor Kit (KIT, Homo sapiens, UniProt P10721); competitive binding scan; autoinhibited form).
For Mast/stem cell growth factor receptor Kit (KIT, Homo sapiens, UniProt P10721, V559D/V654A); competitive binding panel; relative to: vehicle: remaining binding read 91%.
It gave 98% for remaining binding (Protein kinase C iota type (PRKCI, Homo sapiens, UniProt P41743); competitive binding panel; relative to: vehicle).
Protein kinase C eta type (PRKCH, Homo sapiens, UniProt P24723); competitive binding panel; relative to: vehicle — remaining binding: 94%.

Block 4
SMILES: CO[C@@H]1[C@H](N(C)C(=O)c2ccccc2)C[C@H]2O[C@]1(C)n1c3ccccc3c3c4c(c5c6ccccc6n2c5c31)C(=O)NC4
Observed: enzyme activity
Action: inhibitor
Concentration: 1 µM
It gave 41% for inhibition (Tyrosine-protein kinase Lyn (LYN, Homo sapiens, UniProt P07948)).
It gave 94% for inhibition (Mitogen-activated protein kinase kinase kinase kinase 2 (MAP4K2, Homo sapiens, UniProt Q12851)).
For Hepatocyte growth factor receptor (MET, Homo sapiens, UniProt P08581, Y1235D): inhibition read 42%.
The inhibition was 12% (Death-associated protein kinase 1 (DAPK1, Homo sapiens, UniProt P53355)).
It gave 11% for inhibition (Serine/threonine-protein kinase PLK3 (PLK3, Homo sapiens, UniProt Q9H4B4)).
It gave 81% for inhibition (Platelet-derived growth factor receptor alpha (PDGFRA, Homo sapiens, UniProt P16234)).
It gave 27% for inhibition (Phosphatidylinositol 4-phosphate 3-kinase C2 domain-containing subunit beta (PIK3C2B, Homo sapiens, UniProt O00750)).
The inhibition was 0% (Serine/threonine-protein kinase 35 (STK35, Homo sapiens, UniProt Q8TDR2)).
For Phosphatidylinositol 4-phosphate 5-kinase type-1 alpha (PIP5K1A, Homo sapiens, UniProt Q99755): inhibition read 99%.
The inhibition was 55% (Serine/threonine-protein kinase ULK3 (ULK3, Homo sapiens, UniProt Q6PHR2)).
For Tyrosine-protein kinase Fes/Fps (FES, Homo sapiens, UniProt P07332): inhibition read 10%.
It gave 27% for inhibition (Mitogen-activated protein kinase kinase kinase kinase 5 (MAP4K5, Homo sapiens, UniProt Q9Y4K4)).

Excerpt of the above (block 4):
It gave 41% for inhibition (Tyrosine-protein kinase Lyn (LYN, Homo sapiens, UniProt P07948)).
It gave 94% for inhibition (Mitogen-activated protein kinase kinase kinase kinase 2 (MAP4K2, Homo sapiens, UniProt Q12851)).
For Hepatocyte growth factor receptor (MET, Homo sapiens, UniProt P08581, Y1235D): inhibition read 42%.
The inhibition was 12% (Death-associated protein kinase 1 (DAPK1, Homo sapiens, UniProt P53355)).
It gave 11% for inhibition (Serine/threonine-protein kinase PLK3 (PLK3, Homo sapiens, UniProt Q9H4B4)).
It gave 81% for inhibition (Platelet-derived growth factor receptor alpha (PDGFRA, Homo sapiens, UniProt P16234)).
It gave 27% for inhibition (Phosphatidylinositol 4-phosphate 3-kinase C2 domain-containing subunit beta (PIK3C2B, Homo sapiens, UniProt O00750)).
